Experimental data gathered from unrelated publications.
Protocols differ between the studies behind these lines. ± marks the error that the study gave.
Cell line: HepG2

| Structure (SMILES) | assay | test system | conditions | scale | endpoint | value |
| --- | --- | --- | --- | --- | --- | --- |
| NC(=O)c1cc(Br)ccc1OCCc1cccc(F)c1 | – | – | 3 (unit not given) | reference: CC50 glucose over CC50 galactose | selectivity ratio | > 2 |
| C[n+]1cc2c3c(ccc2c2ccc4cc5c(cc4c21)OCO5)OCO3 | – | – | 72 h | reference: HepG2 CC50 over EC50 | selectivity index | 32 |
| N#Cc1cnc2ccc(-c3cccc(N4CCOCC4)c3)cc2c1Nc1ccc(OCc2ccccc2)c(Cl)c1 | cytotoxicity, MTT | – | 48 h | – | TC50 | > 15 µM |
| CC(c1cccnc1)n1c(=S)[nH]c2ccc(Cl)cc2c1=O (stereo not drawn) | – | – | 24 h | – | LD50 | > 100 µM |
| C#Cc1ccc(OCCc2cccc(F)c2)c(C(N)=O)c1 | – | – | 3 (unit not given), human | – | CC50 | 45 ± 5.5 µM |
| O=S(=O)(c1ccc(-c2ccc3nccc(Nc4ccc(OCc5ccccc5)c(Cl)c4)c3c2)cc1)N1CCOCC1 | cytotoxicity, MTT | – | 48 h | – | TC50 | > 5 µM |
| O=c1ccc2ccccc2o1 | refers to: cell count | – | concentration not given, 24 h, phospholipidosis and steatosis panel | – | probability of response | 39.6% |
| O=S(=O)(c1ccc(-c2ccc3nccc(Nc4cnccn4)c3c2)cc1)N1CCOCC1 | cytotoxicity, MTT | – | 48 h | – | TC50 | > 20 µM |
| N.N.[Cl][Pt][Cl] | micronucleus | – | concentration not given, at maximum tested concentration | reference: vehicle | micronucleus frequency | 2.4 fold |
| CN1CCN(S(=O)(=O)c2ccc(-c3ccc4c(Nc5ccc(OCc6cccc(F)c6)c(Cl)c5)cnnc4c3)cc2)CC1 | cytotoxicity, MTT | – | 48 h | – | TC50 | > 15 µM |
| O=S(=O)(c1ccc(-c2ccc3nccc(Nc4ccccn4)c3c2)cc1)N1CCOCC1 | cytotoxicity, MTT | – | 48 h | – | TC50 | > 20 µM |
| COc1ccc(NC(=O)N2CCCCN3[C@H](CN(C)C)[C@H](c4ccc(C#Cc5ccccc5)cc4)[C@@H]3C2)cc1 | – | – | 72 h | reference: HepG2 CC50 over EC50 | selectivity index | 54 |
| O=S(=O)(c1ccc(-c2ccc3ncccc3c2)cc1)N1CCOCC1 | cytotoxicity, MTT | – | 48 h | – | TC50 | > 20 µM |
| NC(=O)c1cc(-c2ccsc2)cc(F)c1OCCc1cccc(F)c1 | – | – | 3 (unit not given) | reference: CC50 glucose over CC50 galactose | selectivity ratio | 1 |
| Cc1c2ccccc2c(C)c2c1ccc1ccccc12 | – | – | maximum tested, 24 (unit not given) | reference: vehicle | micronuclei fold increase | 1.2 fold |
| COc1ncc(Nc2ccnc3ccc(-c4ccc(S(=O)(=O)N5CCOCC5)cc4)cc23)cn1 | cytotoxicity, MTT | – | 48 h | – | TC50 | > 20 µM |
| O=S(=O)(c1ccc(-c2ccc3cnnc(Nc4ccc(OCc5ccccc5)c(Cl)c4)c3c2)cc1)N1CCOCC1 | cytotoxicity, MTT | – | 48 h | – | TC50 | > 5.2 µM |
| Cc1ccc(N)cc1N | – | – | maximum tested, 24 (unit not given) | – | micronucleated cells | 0.5% |
| Cc1nnc(Nc2ccnc3ccc(-c4ccc(S(=O)(=O)N5CCOCC5)cc4)cc23)nc1C | cytotoxicity, MTT | – | 48 h | – | TC50 | > 20 µM |
| [Cl][Cd][Cl] | micronucleus | – | concentration not given, at maximum tested concentration | reference: vehicle | micronucleus frequency | 2 fold |

| Structure (SMILES) | assay | test system | conditions | scale | endpoint | value |
| --- | --- | --- | --- | --- | --- | --- |
| O=S(=O)(c1ccc(-c2ccc3c(Nc4ccc(OCc5ccccc5)c(Cl)c4)ccnc3c2)cc1)N1CCOCC1 | cytotoxicity, MTT | – | 48 h | – | TC50 | > 3 µM |
| O=S(=O)(c1ccc(-c2ccc3nccc(Nc4ccncn4)c3c2)cc1)N1CCOCC1 | cytotoxicity, MTT | – | 48 h | – | TC50 | > 20 µM |
| Cc1cnc(OCCc2cccc(F)c2)c(C(N)=O)c1 | – | galactose medium | 3 (unit not given) | – | CC50 | 55 ± 22 µM |
| CCN(N=O)C(N)=O | – | – | maximum tested, 24 (unit not given) | reference: vehicle | micronuclei fold increase | 2 fold |
| COc1ccc(NC(=O)N2CCCCN3[C@H](CN(C)C)[C@H](c4ccc(C#Cc5ccccc5)cc4)[C@@H]3C2)cc1 | – | – | – | – | CC50 | 5 µM |
| O=c1c2cc(Cl)ccc2[nH]c(=S)n1Cc1cccnc1 | – | – | 24 h | – | LD50 | > 100 µM |
| CCOCCOc1ccnc2ccc(-c3ccc(S(=O)(=O)N4CCOCC4)cc3)cc12 | cytotoxicity, MTT | – | 48 h | – | TC50 | > 20 µM |
| CCN1CCN(Cc2ccc(Nc3nc4ccc(Oc5ccnc(NC(C)=O)c5)cc4n3C)cc2C(F)(F)F)CC1 | cytotoxicity | – | 48 h | – | EC50 | 6 ± 0.4 µM |
| COCCNC(=O)c1cc(-c2ccoc2)ccc1OCCc1cccc(F)c1 | – | – | 3 (unit not given), glucose medium | – | CC50 | > 50 µM |
| O=S(=O)(c1ccc(-c2ccc3ccnc(Nc4ccc(OCc5ccccc5)c(Cl)c4)c3c2)cc1)N1CCOCC1 | cytotoxicity, MTT | – | 48 h | – | TC50 | > 15 µM |
| O=S(=O)(c1ccc(-c2ccc3nccc(Nc4ccncc4)c3c2)cc1)N1CCOCC1 | cytotoxicity, MTT | – | 48 h | – | TC50 | > 20 µM |
| NC(=O)c1cc(-c2ccoc2)cc(F)c1OCCc1cccc(F)c1 | – | – | 3 (unit not given) | reference: CC50 glucose over CC50 galactose | selectivity ratio | 1 |
| OB(O)CSc1nc2ccccc2n1Cc1ccc(C(F)(F)F)cc1C(F)(F)F | XTT | – | 64 mg/L | – | viability | 100% |
| CN(C)N=O | – | – | maximum tested | – | micronucleated cells | 0.8% |
| O=S(=O)(c1ccc(-c2ccc3c(Nc4ccc(OCc5ccccc5)c(Cl)c4)nncc3c2)cc1)N1CCOCC1 | cytotoxicity, MTT | – | 48 h | – | TC50 | > 15 µM |
| O=C(NC1COC1)c1cc(-c2ccoc2)ccc1OCCc1cccc(F)c1 | – | – | 3 (unit not given) | reference: CC50 glucose over CC50 galactose | selectivity ratio | 1 |
| O=c1[nH]c2cc(CO)c(Cl)cc2c(=O)n1Cc1cccnc1 | – | – | 24 h | – | LD50 | > 100 µM |
| CCC(C)(O)c1ccc(OCCc2cccc(F)c2)c(C(N)=O)c1 (stereo not drawn) | – | galactose medium | 3 (unit not given) | – | CC50 | 53 µM |
| Fc1cccc(COc2ccc(Nc3cnnc4ccc(-c5cccc(N6CCOCC6)c5)cc34)cc2Cl)c1 | cytotoxicity, MTT | – | 48 h | – | TC50 | > 15 µM |

Some of these lines once more:
| Structure (SMILES) | assay | test system | conditions | scale | endpoint | value |
| --- | --- | --- | --- | --- | --- | --- |
| N.N.[Cl][Pt][Cl] | micronucleus | – | concentration not given, at maximum tested concentration | reference: vehicle | micronucleus frequency | 2.4 fold |
| CN1CCN(S(=O)(=O)c2ccc(-c3ccc4c(Nc5ccc(OCc6cccc(F)c6)c(Cl)c5)cnnc4c3)cc2)CC1 | cytotoxicity, MTT | – | 48 h | – | TC50 | > 15 µM |
| O=S(=O)(c1ccc(-c2ccc3nccc(Nc4ccccn4)c3c2)cc1)N1CCOCC1 | cytotoxicity, MTT | – | 48 h | – | TC50 | > 20 µM |
| COc1ccc(NC(=O)N2CCCCN3[C@H](CN(C)C)[C@H](c4ccc(C#Cc5ccccc5)cc4)[C@@H]3C2)cc1 | – | – | 72 h | reference: HepG2 CC50 over EC50 | selectivity index | 54 |
| O=S(=O)(c1ccc(-c2ccc3ncccc3c2)cc1)N1CCOCC1 | cytotoxicity, MTT | – | 48 h | – | TC50 | > 20 µM |
